# Assay results from different studies.
# Lines come from different studies, so protocols differ. ± gives the spread as reported.
# MED23 with ELF3: Mediator of RNA polymerase II transcription subunit 23, with ELF3 (MED23, Homo sapiens, UniProt Q9ULK4)
# TP53 M133L/N239Y/N268D/V203A/Y220C DNA-binding domain: Cellular tumor antigen p53, DNA-binding domain (TP53, Homo sapiens, UniProt P04637, M133L/N239Y/N268D/V203A/Y220C)
# crk3 with CYC6: crk3, with CYC6 (Leishmania mexicana, UniProt O15851)
# GRM2: Metabotropic glutamate receptor 2 (GRM2, Homo sapiens, UniProt Q14416)
# Chain of UniProt Q14416 (whole entry, looked up): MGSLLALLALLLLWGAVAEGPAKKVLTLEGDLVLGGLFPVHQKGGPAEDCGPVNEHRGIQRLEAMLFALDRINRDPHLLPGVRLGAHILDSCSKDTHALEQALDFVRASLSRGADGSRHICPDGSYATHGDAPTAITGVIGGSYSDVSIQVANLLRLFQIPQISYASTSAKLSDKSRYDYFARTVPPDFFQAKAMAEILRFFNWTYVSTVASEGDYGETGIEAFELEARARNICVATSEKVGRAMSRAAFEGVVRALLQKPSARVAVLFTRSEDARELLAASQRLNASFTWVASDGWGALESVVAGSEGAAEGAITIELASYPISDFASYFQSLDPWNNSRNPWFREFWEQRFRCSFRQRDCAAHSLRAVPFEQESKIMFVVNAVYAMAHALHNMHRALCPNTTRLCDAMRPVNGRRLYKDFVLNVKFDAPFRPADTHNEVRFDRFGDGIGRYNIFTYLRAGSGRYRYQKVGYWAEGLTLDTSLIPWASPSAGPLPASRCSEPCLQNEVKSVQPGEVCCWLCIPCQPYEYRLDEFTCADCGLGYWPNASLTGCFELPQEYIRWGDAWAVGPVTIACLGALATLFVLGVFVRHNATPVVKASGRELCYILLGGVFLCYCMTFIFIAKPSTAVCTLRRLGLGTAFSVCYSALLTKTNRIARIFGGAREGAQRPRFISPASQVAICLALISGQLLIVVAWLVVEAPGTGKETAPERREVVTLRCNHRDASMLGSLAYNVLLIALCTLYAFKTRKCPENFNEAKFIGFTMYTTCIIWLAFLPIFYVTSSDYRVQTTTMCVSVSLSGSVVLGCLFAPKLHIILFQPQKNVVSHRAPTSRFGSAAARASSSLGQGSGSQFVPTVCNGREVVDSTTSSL
# Chain of UniProt P07339 (whole entry, looked up): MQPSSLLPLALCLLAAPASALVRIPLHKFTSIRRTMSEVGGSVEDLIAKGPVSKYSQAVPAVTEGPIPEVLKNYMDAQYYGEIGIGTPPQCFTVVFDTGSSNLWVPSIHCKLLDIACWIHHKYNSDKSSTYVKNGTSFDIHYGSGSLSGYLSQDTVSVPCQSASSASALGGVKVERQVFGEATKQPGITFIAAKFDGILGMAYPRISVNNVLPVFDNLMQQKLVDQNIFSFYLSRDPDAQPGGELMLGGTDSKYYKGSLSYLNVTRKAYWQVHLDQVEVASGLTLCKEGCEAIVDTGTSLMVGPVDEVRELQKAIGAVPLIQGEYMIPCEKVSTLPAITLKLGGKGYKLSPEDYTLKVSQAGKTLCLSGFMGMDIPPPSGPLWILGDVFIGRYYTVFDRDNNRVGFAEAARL
# Chain of UniProt Q9HC97 (whole entry, looked up): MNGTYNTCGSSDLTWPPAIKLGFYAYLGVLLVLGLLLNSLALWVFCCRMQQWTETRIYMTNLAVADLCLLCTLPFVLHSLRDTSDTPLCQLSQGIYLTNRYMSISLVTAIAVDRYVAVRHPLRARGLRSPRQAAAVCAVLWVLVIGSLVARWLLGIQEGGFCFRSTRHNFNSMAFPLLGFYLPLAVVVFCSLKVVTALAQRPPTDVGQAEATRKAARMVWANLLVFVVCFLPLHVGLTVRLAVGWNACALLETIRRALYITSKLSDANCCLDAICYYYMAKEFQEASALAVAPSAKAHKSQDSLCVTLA
Structure (SMILES),tested on,assay,system,setting,scale,measurement,value
O=C(C=Cc1ccco1)c1ccccc1O,MED23 with ELF3,"SEAP reporter gene, inhibitor",,"10 µM, 12 h",,inhibition,50%
N#Cc1cnc(Br)cn1,TP53 M133L/N239Y/N268D/V203A/Y220C DNA-binding domain,DSF,,"1 mM, 30 min, 20 °C",,delta Tm,1.65 °C
COc1cc(OC)cc(-c2cc(NC(C)=O)[nH]n2)c1,crk3 with CYC6,IMAP fluorescence polarisation,,"30 µM, with L. major CYC6",,inhibition,0%
CCCCCC(=O)OCn1cc(F)c(=O)[nH]c1=O,,metabolic stability,"Sprague-Dawley rat, liver",80 µg/mL,,half-life,< 4.98 min
O=[N+]([O-])c1cccc(/C=N/Nc2nnc(N/N=C/c3cccc([N+](=O)[O-])c3)c3ccccc23)c1,iron(III),UV-Vis titration,,stoichiometry 2,,binding constant,3.1e+10 M⁻²
Cc1cc(NC(=O)c2ccc(Oc3ccccc3)cc2)[nH]n1,crk3 with CYC6,IMAP fluorescence polarisation,,"30 µM, with L. major CYC6",,inhibition,7%
Clc1c(-c2ccc(Oc3ccccc3)cc2)ccn2c(CC3CC3)nnc12,GRM2,"GTPγS binding, positive allosteric modulator",,together with: EC20 glutamate,relative to: control glutamate response,Emax,225 ± 12%
CCc1nc(C#N)c(Cl)nc1Cl,"Cellular tumor antigen p53, DNA-binding domain (TP53, Homo sapiens, UniProt P04637, M133L/N239Y/N268D/V203A)",differential scanning fluorimetry,,"1 mM, 30 min",,ΔTm,-4.85 °C
CCC(=O)N1N=C(c2cccc(O)c2)CC1c1ccc(OC)cc1 (stereo not drawn),MED23 with ELF3,"SEAP reporter gene, inhibitor",,"10 µM, 12 h",,inhibition,87%
O=C(O)COc1ccc(Br)cc1C=NNC(=O)Cc1ccccc1 (mixture of isomers),,,"mouse, PTZ-induced seizures","oral, 20 mg/kg",relative to: valproic acid 300 mg/kg,relative protection,167%
O=C(C=Cc1cccs1)c1ccccc1O,MED23 with ELF3,"SEAP reporter gene, inhibitor",,"10 µM, 12 h",,inhibition,50%
CN1CCN(c2nn3c(-c4ccc([N+](=O)[O-])cc4)nnc3c3ccccc23)CC1,iron(III),UV-Vis titration,,stoichiometry 1,,binding constant,< 10 M⁻¹
CCCCn1ccn2c(-c3ccc(NC4CCOCC4)c(Cl)c3)c(C)nc2c1=O,GRM2,"G protein activation, positive allosteric modulator",,together with: glutamate at EC20,relative to: glutamate response,Emax,240 ± 6%
Cc1nc(C#N)cnc1Cl,TP53 M133L/N239Y/N268D/V203A/Y220C DNA-binding domain,differential scanning fluorimetry,,"1 mM, 20 °C",,time to maximal ΔTm,3 h
O=C(O)C(=O)Cc1ccc(O)cc1,"G-protein coupled receptor 35 (GPR35, Homo sapiens, UniProt Q9HC97)","β-arrestin translocation, agonist, Tango reporter",U2OS GPR35-bla,,,EC50,inactive
CC[C@H](C)[C@@H]1NC(=O)[C@H](CC(C)C)NC(=O)[C@H](Cc2ccccc2)NC(=O)[C@H](Cc2ccccc2)NC(=O)[C@@H]2CCCN2C(=O)[C@@H]2CCCN2C(=O)[C@H](C(C)C)NC(=O)[C@H](CC(C)C)NC(=O)[C@H]([C@@H](C)CC)NC1=O,SK-BR-3,LDH release,,"400 µg/mL, 24 h",,cytotoxicity,75%
CC(C)C[C@H](NC(=O)[C@@H](NC(=O)[C@H](CCONC(=N)N)NC(=O)OCc1ccccc1)C(C)C)[C@@H](O)CC(=O)NCCc1ccccc1,"Cathepsin D (CTSD, Homo sapiens, UniProt P07339)",,,,relative to: CTSD IC50 over plasmepsin V IC50,selectivity ratio,17 fold
FC(F)(F)c1c(-c2ccc(NC3CCOCC3)c(Cl)c2)ccn2c(CC3CC3)nnc12,GRM2,"GTPγS binding, positive allosteric modulator",,together with: EC20 glutamate,relative to: control glutamate response,Emax,353%
Cc1nc(Cl)cnc1C#N,TP53 M133L/N239Y/N268D/V203A/Y220C DNA-binding domain,DSF,,"1000 µM, 24 h",,delta Tm,2.15 °C
CC[C@H](C)[C@H](NC(=O)[C@H](Cc1c[nH]c2ccccc12)NC(=O)[C@@H](N)CO)C(=O)N[C@H](C(=O)N[C@@H](CCC(=O)O)C(=O)N[C@@H](CC(C)C)C(=O)N[C@@H](CC(C)C)C(=O)N[C@@H](CCC(=O)O)C(=O)O)[C@@H](C)CC,MED23 with ELF3,"SEAP reporter gene, inhibitor",,"10 µM, 12 h",,inhibition,53%
FC(F)(F)c1c(-c2ccc(N3CCNCC3)c(Cl)c2)ccn2c(CC3CC3)nnc12,GRM2,"GTPγS binding, agonist, radiometric",,cell membranes,,Emax,68%
NCCCN1CC(=O)N(CC(c2ccccc2)c2ccccc2)CC(=O)N(CCCN)CC(=O)N(CC(c2ccccc2)c2ccccc2)CC(=O)N(CCCN)CC(=O)N(CC(c2ccccc2)c2ccccc2)CC1=O,,X-ray reflectivity,DPPG monolayer headgroups,,,extra electrons per lipid,82 ± 5
COc1ccc(CNc2ccc(-c3ccn4c(CC5CC5)nnc4c3C(F)(F)F)cc2F)cn1,GRM2,"GTPγS binding, positive allosteric modulator",,together with: EC20 glutamate,relative to: control glutamate response,Emax,262 ± 21%
Cc1ccc(C(=O)N/N=C/c2cc(Br)ccc2OCC(=O)O)cc1,,Racine scale 0-5,"male mice, pilocarpine-induced seizures","oral, 20 mg/kg, 2 h after pilocarpine, unit not given, together with: pilocarpine 300 mg/kg i.p.",higher = more severe,seizure severity,1.7 ± 0.48

# Excerpt of the above:
Structure (SMILES),tested on,assay,system,setting,scale,measurement,value
CCc1nc(C#N)c(Cl)nc1Cl,"Cellular tumor antigen p53, DNA-binding domain (TP53, Homo sapiens, UniProt P04637, M133L/N239Y/N268D/V203A)",differential scanning fluorimetry,,"1 mM, 30 min",,ΔTm,-4.85 °C
CCC(=O)N1N=C(c2cccc(O)c2)CC1c1ccc(OC)cc1 (stereo not drawn),MED23 with ELF3,"SEAP reporter gene, inhibitor",,"10 µM, 12 h",,inhibition,87%
